Measurements collected from several papers.
Each numbered part is a random draw from the data of one study; scales do not carry over between parts.

Study 1
Target: RING finger protein unkempt homolog, zinc fingers 1-6, GST-SBP tag (UNK, Homo sapiens, UniProt Q9C0B0, residues 30-357)
Technique: RNA Bind-n-Seq
Molecule type: RNA
Sample: in vitro
Concentration: not given
Setting: RNA with constant flanks, human-mouse chimeric sites, ends assumed
Baseline: input RNA pool
Direction: higher = stronger binding
Measurement: bound/input enrichment
All sequences stand within: GGGAGUUCUACAGUCCGACGAUC … CAACAGAGGAUUGAGCAUCA
Target sequence (chain): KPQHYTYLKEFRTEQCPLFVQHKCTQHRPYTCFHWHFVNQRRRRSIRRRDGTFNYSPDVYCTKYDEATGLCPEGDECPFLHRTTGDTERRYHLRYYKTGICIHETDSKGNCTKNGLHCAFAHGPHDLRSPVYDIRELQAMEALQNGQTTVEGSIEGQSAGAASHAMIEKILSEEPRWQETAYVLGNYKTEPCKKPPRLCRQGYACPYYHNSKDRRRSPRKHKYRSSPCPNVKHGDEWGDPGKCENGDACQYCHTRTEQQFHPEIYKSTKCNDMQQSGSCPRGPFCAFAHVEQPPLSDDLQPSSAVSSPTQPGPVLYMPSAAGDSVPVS
UAUAAUAAUCAUGAAAUUCGUUCUGGAAAGCACAUUGGUGUCUGCAUCUCAGUUGCCAACAAUAGGCUUUUUGUGGGCUCGAUUCCUAAGAGUAAAACCAAGGAGCAGAUUCUUGAAGAA: 0.983 ratio
AAAGAACUACUGAGGCAAGGCAGCAAAUUUAGGAGAGAUGUAUCAACAAUAUUGAUAGAGUUAGGAUUCCAAAUUAAAAAGAAAACUAAGACAUUAUACAUCAACAAAGCCAAUAUCUGG: 5.09 ratio
GGACAUCUGUCAAAUUGUUAUGUUCCUAAAAACGUAGUGAACACUCUGAUACACUUCAUCUGCUUGUACAUCUGUAUGAUAGAGAAAUGUAAAUAUGAAUAUAUUUACAAUGUGUCACUU: 0.141 ratio
GUGACUGGUGUUAAGAUUUCCCCUCAGCAAAGAAGUGCAGUAGUCACCAUAAUUCCAUCUGUGGUGAGUGCCAGUCAGAUUGUGGAGCUGGUUCCAGAACUCAGUUUAGACAUGGGAACU: 0.217 ratio
GUAGCUGGGACUACAGAAAUGCUGGUAAUUUCAGUCACUUGCUGAUGACUUCUGAUGUCCCAGCAAAUGUUGGCAUUGUUGACUGCUGAGAAGAUACACUCGCAAGGCCACGUCUAAGGU: 0.091 ratio
GUCAACAGCUGCCUCAACCCCAUCCUCUACGCCUUCCUGGAUGAGAACUUCAAGGCCUGCUUUAGAAAGUUCUGCUGUGCAUCUGCCCUGCGCCGGGACGUGCAGGUUUCUGAUCGUGUG: 0.316 ratio
GAUAGGAAAAGCUUGUUGGAGACCCGCUUGCAUGUCACUGGUAGAGACCUGAGGUGUCAAAUAGCUGAAACUUUCGGAUUUCAAGAAAAUUACAUCAAGAUCGUAAUAAAUAAGAAACAG: 0.524 ratio
AGUGUGCAGGAAUUCAUGACCUUUACAAGUCAACUGAUUGUGGAACGCUCGGGGAAAGGCAGCAGAGCUUCUGUCAAAGAACAAGAGUAUCUUUGCCACGUCUACGUCCGGAGCGACAGU: 0.114 ratio
CACACCCUCUUCUGCGGGACCCUCAUCUUGCAGGCCCGAGCCUACGUGGGACCGCACGUCCUGGCAGUGGUGACCCGCACAGGGUUCUGCACGGCAAAAGGGGGCCUGGUGAGCUCCAUC: 0.0794 ratio
AGAUUCCCCCUCCUGAGACCUCCUCCGAAGUUGGAGUCUCUUAUAGAUGCCUCAUCCCCUGUUAGCGUUUUAGUUUGGACCACCCAGCCUUGGACAAUUCCCGCCAACCAGGCAAUUUGC: 1.12 ratio
GAUAAGAAAAGCUUGUUGGAGACCCGCUUGCACAUCACUGGUAGAGAACUGAGGUCCCAAAUAGCUGAAACUUUCGGAUUUCAAGAAAAUUACAUCAAGAUCGUAAUAAAUAAGAAACAG: 0.327 ratio

Study 2
Target: Histone acetyltransferase KAT6A, winged helix 1, GST fusion (KAT6A, Homo sapiens, UniProt Q92794, residues 1-85)
Technique: protein binding microarray
Molecule type: double-stranded DNA, one strand shown
Sample: in vitro
Concentration: not given
Setting: 8-mer, flanks averaged, mean of 2 arrays, mostly near background
Baseline: not given
Direction: higher = stronger binding
Measurement: E-score
Target sequence (chain): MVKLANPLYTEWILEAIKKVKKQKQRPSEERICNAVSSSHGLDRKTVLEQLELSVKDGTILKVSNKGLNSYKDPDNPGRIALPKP
GAATAAAC: -0.0246
GATGTCCC: 0.149
AGATGGCG: 0.0375
TATTCAAA: -0.0788
AAAGAAGA: -0.0498
ACTTATCC: -0.113
CTGGAATA: -0.115
CAATATGA: -0.164
CGCGACCG: 0.412
AGTAAAAC: -0.0985
ATGAGTCG: -0.104
GACCACAC: -0.199
ATTTCCTG: -0.128
ACGGTTAA: 0.11
AGCCTCAA: -0.213
AGGCTATG: -0.13
ATCAGGCG: -0.00526
CCAGGTGA: -0.274
AGTTTACC: -0.103
CCAGCACC: -0.0559
CGGCACCC: 0.331
AGGTCAAC: -0.223
CCGCACTA: 0.147
ACATCGCA: 0.0673
GAATGTAA: -0.0542

Study 3
Target: RNA binding protein fox-1 homolog 2, RRM domain, GST-SBP tag (RBFOX2, Homo sapiens, UniProt O43251-10, residues 100-194)
Technique: RNA Bind-n-Seq
Molecule type: RNA
Sample: in vitro
Concentration: 365 nM
Setting: natural RNA segment, single round, ends assumed
Baseline: no-protein control
Direction: higher = stronger binding
Measurement: RBNS enrichment (R)
All sequences stand within: GGGAGUUCUACAGUCCGACGAUC … UGGAAUUCUCGGGUGCCAA
Target sequence (chain): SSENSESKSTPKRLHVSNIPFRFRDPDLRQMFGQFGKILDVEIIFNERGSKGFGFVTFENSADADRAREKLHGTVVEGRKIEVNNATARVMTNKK
AUGAUUCUAUGUAAUGUAAACCAGAAAAAAUAAAUGUUCAUGAUUUCAAGAUGUUAUAUUAAAGAAAAACUUUAAAAAUUAUUAUAUAUUUAUAGCAAAGUUAUCUUAAA: 1.56
UUAUGAGGAAACUAUUUGGAUUAGUGGCCAGAAACGAUGAAAUCUUAUAGAUCUUUUGACAGUUUCUCUGUUUAGGGGAGCCUAGACUGAUAUCAAGUUUCUUCAUAUCA: 0.364
CGUCCGUCCUGUGGGCGCUCUGCCCUGUGUCCUUCGCGUUCCUCGUUAAGCAGAAGAAGUCAGUAGUUAUUCUCCCAUGAACGUUCUUGUCUGUGUACAGUUUUUAGAAC: 0.547
GUGUAUCAGCACUCAGCUCCCACAGAAGUCAAGUCACAAAAUAUAGUGUCAGUUAACUAUAAGGAAGUUCCGGAGAGGUAAAGCUCAGGAAAGAUGUAAUGCAAAGCUGA: 0.799
GACAAUCAAAAAUACUUAGAAGAUAAAGCUCAAGAAUUGGUGCGACUGGAAGGAGAGGUUCGCUCCCUCCUUAAGGACAUAAGUGAGAAAGUUGCGGUUUACAGCACCUG: 0.312
AGAAGGAAAACGCCAAAUGCUUUGGUUAUUAGAGUUUAAUAGGUAAGCUCUGUUACACUAGGUGUUAGAGUUCCAGAAUGUUCUUUUGUUUGCUAAACCUUGAAGAAACA: 1.01
UAAUUGACUUUUCUUUCAGCUCCAGUGUGAACUAUAAAACCAUAAUCACUCAGUUCUUGGAAAAGUCAAACAACGUGGUGGACAUUUUGUCACAUUUUAGAAGCAGUCAG: 0.29
AUUUUAAGAAUUCUCACUUGGCCUUUAGCACACCCGCCACCCCCAAGUGGGUGUGGAUAAUGCCAUGGCCAGCAGGGGGCACUGUUGAGGCGGGUGCCUUUCCACCUUAA: 0.235
CACUAAAAUUUCUCUGUGUUGUUACAGUCUUAGAGGUUGCAGUACUAUAUUGUAAGCUUUGGUGUUUGUUUAAUUAGCAAUAGGGAUGGUAGGAUUCAAAUGUGUGUCAU: 0.361

Study 4
Target: Interferon regulatory factor 7, full length, phosphomimetic (IRF7, Homo sapiens, UniProt Q92985, residues 1-503, S101K/S471D/S472D/S475D/S476D/S477D/S483D/S484D/S487D)
Technique: protein-binding microarray
Molecule type: double-stranded DNA, one strand shown
Sample: in vitro
Concentration: 250 nM
Setting: 60-bp whole probe
With: salmon DNA 0.4 mg/ml
Baseline: random background probes
Direction: higher = stronger binding
Measurement: log fluorescence
All sequences stand within: GCCTAGCAC … GTCTTGATTCGCTTGACGCTGCTG
Construct (chain): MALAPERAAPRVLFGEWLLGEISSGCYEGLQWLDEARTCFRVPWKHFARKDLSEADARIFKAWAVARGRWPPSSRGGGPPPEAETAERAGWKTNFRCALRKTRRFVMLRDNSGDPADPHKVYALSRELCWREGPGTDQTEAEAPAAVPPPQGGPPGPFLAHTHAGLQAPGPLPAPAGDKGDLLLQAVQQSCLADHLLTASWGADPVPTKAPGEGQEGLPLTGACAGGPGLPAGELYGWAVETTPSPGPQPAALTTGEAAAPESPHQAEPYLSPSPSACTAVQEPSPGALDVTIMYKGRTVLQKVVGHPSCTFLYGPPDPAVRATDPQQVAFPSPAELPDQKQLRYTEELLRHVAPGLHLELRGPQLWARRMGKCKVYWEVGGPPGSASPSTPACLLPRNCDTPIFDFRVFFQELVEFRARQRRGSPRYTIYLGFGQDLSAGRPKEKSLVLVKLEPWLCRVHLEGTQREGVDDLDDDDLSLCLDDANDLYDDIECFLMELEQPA
TTAGGTATCGACACTGGGATAGTGCTA: -0.272 z-score
TCAAATCTTTTTCCCTAACTGTGCTAG: 1.1 z-score
GTGACAGTTTTATTTTAGTTGGTGCTA: 0.358 z-score
TTAGGTTTCGGTATCGGTTAGTGCTAG: 10.7 z-score
GACGGTATCGGGTATGGGGACGTGCTA: -0.0768 z-score
TCACCTTTCACTTTAACACTGTGCTAG: 1.59 z-score
TTAAAACTGAGTATCGATTAGTGCTAG: 0.861 z-score
CTTGCTTCCTAATTCTCTTTGTGCTAG: 0.716 z-score
GACGATTCCAGTCTCGAGACGTGCTAG: 0.945 z-score
TCATCTTGTTCTCTCTGACTGTGCTAG: 0.639 z-score
TACGATATCAGACTGGAGACGTGCTAG: -0.331 z-score
GTAGATTTCAGTCTCGATTAGTGCTAG: 1.41 z-score
GACGGACTGGGTCTCGGGATGTGCTAG: -0.362 z-score
TCAACTTTCAGTTCTCCACTGTGCTAG: 1.37 z-score
GACGGTATCGGTATGGGGACGTGCTAG: 0.637 z-score
TTAGGTTCCCTTTTACTTTAGTGCTAG: 4.37 z-score
TTAGATTTCGGTCTCGATTAGTGCTAG: 2.9 z-score

For quick reference, copied from above (study 3):
GUGUAUCAGCACUCAGCUCCCACAGAAGUCAAGUCACAAAAUAUAGUGUCAGUUAACUAUAAGGAAGUUCCGGAGAGGUAAAGCUCAGGAAAGAUGUAAUGCAAAGCUGA: 0.799
CACUAAAAUUUCUCUGUGUUGUUACAGUCUUAGAGGUUGCAGUACUAUAUUGUAAGCUUUGGUGUUUGUUUAAUUAGCAAUAGGGAUGGUAGGAUUCAAAUGUGUGUCAU: 0.361
GACAAUCAAAAAUACUUAGAAGAUAAAGCUCAAGAAUUGGUGCGACUGGAAGGAGAGGUUCGCUCCCUCCUUAAGGACAUAAGUGAGAAAGUUGCGGUUUACAGCACCUG: 0.312
UAAUUGACUUUUCUUUCAGCUCCAGUGUGAACUAUAAAACCAUAAUCACUCAGUUCUUGGAAAAGUCAAACAACGUGGUGGACAUUUUGUCACAUUUUAGAAGCAGUCAG: 0.29
AUUUUAAGAAUUCUCACUUGGCCUUUAGCACACCCGCCACCCCCAAGUGGGUGUGGAUAAUGCCAUGGCCAGCAGGGGGCACUGUUGAGGCGGGUGCCUUUCCACCUUAA: 0.235
AGAAGGAAAACGCCAAAUGCUUUGGUUAUUAGAGUUUAAUAGGUAAGCUCUGUUACACUAGGUGUUAGAGUUCCAGAAUGUUCUUUUGUUUGCUAAACCUUGAAGAAACA: 1.01
UUAUGAGGAAACUAUUUGGAUUAGUGGCCAGAAACGAUGAAAUCUUAUAGAUCUUUUGACAGUUUCUCUGUUUAGGGGAGCCUAGACUGAUAUCAAGUUUCUUCAUAUCA: 0.364
AUGAUUCUAUGUAAUGUAAACCAGAAAAAAUAAAUGUUCAUGAUUUCAAGAUGUUAUAUUAAAGAAAAACUUUAAAAAUUAUUAUAUAUUUAUAGCAAAGUUAUCUUAAA: 1.56
CGUCCGUCCUGUGGGCGCUCUGCCCUGUGUCCUUCGCGUUCCUCGUUAAGCAGAAGAAGUCAGUAGUUAUUCUCCCAUGAACGUUCUUGUCUGUGUACAGUUUUUAGAAC: 0.547
